Published values from different studies.
Parts stem from different laboratories: compare values within a part only.
Chain of UniProt P53350 (whole entry, looked up): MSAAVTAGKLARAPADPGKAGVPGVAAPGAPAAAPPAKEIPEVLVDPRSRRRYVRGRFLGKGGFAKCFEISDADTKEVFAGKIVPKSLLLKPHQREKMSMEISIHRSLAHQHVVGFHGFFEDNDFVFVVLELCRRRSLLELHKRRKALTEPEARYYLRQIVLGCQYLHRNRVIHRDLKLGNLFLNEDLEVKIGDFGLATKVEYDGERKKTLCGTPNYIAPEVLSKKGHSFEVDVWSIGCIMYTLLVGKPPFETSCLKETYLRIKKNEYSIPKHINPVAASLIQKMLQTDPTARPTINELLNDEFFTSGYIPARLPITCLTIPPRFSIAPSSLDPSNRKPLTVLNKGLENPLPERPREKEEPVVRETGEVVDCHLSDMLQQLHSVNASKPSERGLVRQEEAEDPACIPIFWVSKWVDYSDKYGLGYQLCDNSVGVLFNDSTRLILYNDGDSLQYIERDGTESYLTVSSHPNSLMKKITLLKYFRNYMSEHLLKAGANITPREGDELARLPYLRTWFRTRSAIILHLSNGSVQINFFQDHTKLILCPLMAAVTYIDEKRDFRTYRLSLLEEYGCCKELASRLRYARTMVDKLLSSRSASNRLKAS
Chain of UniProt P45985 (whole entry, looked up): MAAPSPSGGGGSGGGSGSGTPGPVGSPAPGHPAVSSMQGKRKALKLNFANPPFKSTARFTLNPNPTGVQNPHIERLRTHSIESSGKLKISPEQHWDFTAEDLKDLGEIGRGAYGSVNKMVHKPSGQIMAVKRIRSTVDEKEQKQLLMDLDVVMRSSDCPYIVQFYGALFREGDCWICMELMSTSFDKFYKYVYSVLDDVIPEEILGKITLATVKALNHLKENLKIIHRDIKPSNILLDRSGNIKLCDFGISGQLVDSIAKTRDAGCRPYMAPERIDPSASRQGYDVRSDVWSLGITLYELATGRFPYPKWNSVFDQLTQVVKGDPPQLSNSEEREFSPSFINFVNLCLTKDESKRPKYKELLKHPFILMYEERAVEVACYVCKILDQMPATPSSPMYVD
Chain of UniProt O75460 (whole entry, looked up): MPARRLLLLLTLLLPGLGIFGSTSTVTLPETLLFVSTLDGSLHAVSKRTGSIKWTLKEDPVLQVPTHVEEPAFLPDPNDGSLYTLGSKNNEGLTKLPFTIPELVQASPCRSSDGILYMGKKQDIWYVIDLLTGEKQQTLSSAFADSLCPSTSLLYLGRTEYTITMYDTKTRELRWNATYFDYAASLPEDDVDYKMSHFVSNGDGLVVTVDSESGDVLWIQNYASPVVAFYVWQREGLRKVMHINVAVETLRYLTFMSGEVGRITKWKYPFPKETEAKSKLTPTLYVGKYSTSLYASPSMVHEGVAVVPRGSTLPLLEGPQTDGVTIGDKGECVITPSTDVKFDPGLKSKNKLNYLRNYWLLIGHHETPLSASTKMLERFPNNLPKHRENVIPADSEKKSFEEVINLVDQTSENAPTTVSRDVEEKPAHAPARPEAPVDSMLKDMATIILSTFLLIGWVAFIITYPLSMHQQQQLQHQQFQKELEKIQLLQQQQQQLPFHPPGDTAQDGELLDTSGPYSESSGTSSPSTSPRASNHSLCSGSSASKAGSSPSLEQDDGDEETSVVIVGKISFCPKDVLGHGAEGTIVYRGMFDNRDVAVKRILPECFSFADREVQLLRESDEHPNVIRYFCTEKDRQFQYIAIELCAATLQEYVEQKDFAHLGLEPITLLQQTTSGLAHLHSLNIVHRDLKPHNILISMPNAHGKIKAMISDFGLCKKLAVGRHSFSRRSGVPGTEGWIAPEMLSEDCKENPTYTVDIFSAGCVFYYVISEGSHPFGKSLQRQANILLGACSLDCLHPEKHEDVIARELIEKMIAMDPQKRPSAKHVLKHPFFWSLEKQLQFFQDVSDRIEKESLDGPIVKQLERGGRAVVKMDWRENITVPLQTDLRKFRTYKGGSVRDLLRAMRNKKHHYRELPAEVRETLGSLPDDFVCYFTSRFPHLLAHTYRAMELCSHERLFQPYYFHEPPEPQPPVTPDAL
Chain of UniProt P19784 (whole entry, looked up): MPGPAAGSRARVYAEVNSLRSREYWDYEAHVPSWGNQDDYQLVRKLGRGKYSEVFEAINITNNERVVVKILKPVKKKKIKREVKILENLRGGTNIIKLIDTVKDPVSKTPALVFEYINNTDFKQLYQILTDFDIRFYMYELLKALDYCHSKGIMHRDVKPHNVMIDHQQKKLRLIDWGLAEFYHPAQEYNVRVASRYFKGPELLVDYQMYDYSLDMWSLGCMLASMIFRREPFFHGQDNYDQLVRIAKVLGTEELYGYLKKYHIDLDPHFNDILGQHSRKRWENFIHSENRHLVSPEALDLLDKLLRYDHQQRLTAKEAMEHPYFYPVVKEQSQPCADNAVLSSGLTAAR
Chain of UniProt O94806 (whole entry, looked up): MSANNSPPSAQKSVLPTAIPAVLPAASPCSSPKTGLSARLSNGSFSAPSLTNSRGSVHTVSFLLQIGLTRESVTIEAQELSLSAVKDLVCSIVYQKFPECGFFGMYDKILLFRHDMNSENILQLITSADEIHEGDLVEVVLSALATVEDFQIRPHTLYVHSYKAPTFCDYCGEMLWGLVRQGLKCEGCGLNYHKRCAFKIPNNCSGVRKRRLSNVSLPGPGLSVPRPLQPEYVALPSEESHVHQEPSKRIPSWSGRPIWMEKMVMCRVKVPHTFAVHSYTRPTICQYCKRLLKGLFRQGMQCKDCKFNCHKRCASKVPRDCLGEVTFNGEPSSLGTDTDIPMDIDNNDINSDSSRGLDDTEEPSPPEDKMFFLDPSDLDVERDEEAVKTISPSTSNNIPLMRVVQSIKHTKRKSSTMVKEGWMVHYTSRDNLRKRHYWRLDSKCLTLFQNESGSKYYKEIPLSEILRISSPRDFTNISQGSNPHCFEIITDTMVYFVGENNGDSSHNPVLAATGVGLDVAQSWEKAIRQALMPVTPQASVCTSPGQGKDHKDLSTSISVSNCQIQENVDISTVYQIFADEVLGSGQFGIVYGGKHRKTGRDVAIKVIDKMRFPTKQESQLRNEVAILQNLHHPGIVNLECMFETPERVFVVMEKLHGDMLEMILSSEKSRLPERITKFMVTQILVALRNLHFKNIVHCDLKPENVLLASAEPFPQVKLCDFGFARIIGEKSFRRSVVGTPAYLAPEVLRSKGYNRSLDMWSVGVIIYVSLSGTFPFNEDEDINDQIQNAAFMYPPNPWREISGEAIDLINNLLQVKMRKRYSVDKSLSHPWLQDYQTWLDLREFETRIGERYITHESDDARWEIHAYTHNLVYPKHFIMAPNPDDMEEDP

Block 1 — organism: Sarcocystis neurona; observed: parasite growth; tested at: 10 µM
For `C=CC[C@@H]1/C=C(\C)C[C@H](C)C[C@H](OC)[C@H]2O[C@@](O)(C(=O)C(=O)N3CCCC[C@H]3C(=O)O[C@H](/C(C)=C/[C@@H]3CC[C@@H](O)[C@H](OC)C3)[C@H](C)[C@@H](O)CC1=O)[C@H](C)C[C@@H]2OC`, the inhibition was 25.5%.
With `CC1=C(C/C=C(\C)CCC[C@H](C)CCC[C@H](C)CCCC(C)C)C(=O)c2ccccc2C1=O` the inhibition was -24.4%.
With `CCOC(=O)C1=C(C)NC(C)=C(C(=O)OCC)C1c1ccccc1/C=C/C(=O)OC(C)(C)C` the inhibition was 28.1%.
With `COC(=O)Nc1nc2cc(C(=O)c3ccc(F)cc3)ccc2[nH]1` the inhibition was 19.7%.
`CCC1=C(C)CN(C(=O)NCCc2ccc(S(=O)(=O)NC(=O)N[C@H]3CC[C@H](C)CC3)cc2)C1=O` gave an inhibition of -39.3%.
For `O=c1[nH]c(=O)n([C@H]2C[C@H](O)[C@@H](CO)O2)cc1F`, the inhibition was 42.7%.
`CCOC(=O)[C@H](CCc1ccccc1)N[C@@H](C)C(=O)N1Cc2ccccc2C[C@H]1C(=O)O` has an inhibition of -29.7%.
With `CCc1nc(N)nc(N)c1-c1ccc(Cl)cc1` the inhibition was 79.3%.
With `CCCCC1=NC2(CCCC2)C(=O)N1Cc1ccc(-c2ccccc2-c2nnn[nH]2)cc1` the inhibition was 2.8%.

Block 2 — observed: enzyme activity; mode: inhibitor; tested at: 0.5 µM; reference: control
Target: Serine/threonine-protein kinase pim-1 (PIM1, Homo sapiens, UniProt P11309)
Chain of UniProt P11309 (whole entry, looked up): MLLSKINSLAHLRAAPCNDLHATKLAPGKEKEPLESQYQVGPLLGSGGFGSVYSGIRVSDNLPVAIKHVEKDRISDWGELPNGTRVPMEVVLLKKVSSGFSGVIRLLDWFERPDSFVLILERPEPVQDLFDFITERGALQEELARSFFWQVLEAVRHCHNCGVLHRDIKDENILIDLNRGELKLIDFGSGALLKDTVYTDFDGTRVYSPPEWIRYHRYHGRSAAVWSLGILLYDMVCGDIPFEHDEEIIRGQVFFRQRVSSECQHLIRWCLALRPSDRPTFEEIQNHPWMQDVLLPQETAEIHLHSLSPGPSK
`O=C(NC(NC(=S)Nc1ccc(F)c([N+](=O)[O-])c1)C(Cl)(Cl)Cl)C(c1ccccc1)c1ccccc1` (centres unmarked) has a remaining activity of 101%.
For `COc1cc2ncnc(Nc3cccc(Cl)c3)c2cc1OC`, the remaining activity was 91.5%.
The remaining activity of `Cc1cn(-c2cc(NC(=O)c3ccc(C)c(Nc4nccc(-c5cccnc5)n4)c3)cc(C(F)(F)F)c2)cn1` is reported as 97.4%.
With `O=C1C(Cl)=C(N2C(=O)CCC2=O)C(=O)c2ccccc21` the remaining activity was 100%.
With `COc1cc2c(cc1OC)-c1[nH]nc(Nc3cccc(F)c3)c1C2` the remaining activity was 97.2%.
`CCN(CC)C(=O)c1ccc(Nc2nc(OCC3CCCCC3)c3[nH]cnc3n2)cc1` has a remaining activity of 95.6%.
`c1ccc(-c2cnc(Nc3ccc(OCCN4CCCC4)cc3)s2)cc1` gave a remaining activity of 100%.
The remaining activity of `O=c1cc(-c2cccc3c2Sc2ccccc2S3)oc(N2CCOCC2)c1` is reported as 77.6%.
The remaining activity of `O=C(Nc1cccc(Nc2nccc(Nc3cccc(C(F)(F)F)c3)n2)c1)C1CC1` is reported as 103%.
The remaining activity of `Cc1nc2cc3nc(-c4cccs4)cnc3cc2n1C` is reported as 103%.
`CCOc1nc(NC(=O)Cc2cc(OC)ccc2OC)cc(N)c1C#N` has a remaining activity of 104%.
The remaining activity of `Cn1nc2c3c(cccc31)C(=O)c1ccccc1-2` is reported as 80.3%.
`CN([C@@H](Cc1ccc(OS(=O)(=O)c2cccc3cnccc23)cc1)C(=O)N1CCN(c2ccccc2)CC1)S(=O)(=O)c1cccc2cnccc12` has a remaining activity of 106%.
`C[C@@H]1CCN(C(=O)CC#N)C[C@@H]1N(C)c1ncnc2[nH]ccc12` gave a remaining activity of 102%.
With `COc1cc2ncnc(Nc3ccc(O)c(Br)c3)c2cc1OC` the remaining activity was 75.5%.
For `N#C/C(=C\c1ccc(O)c(O)c1)C(=O)NCc1ccccc1`, the remaining activity was 108%.
`Ic1cccc(CSc2nnc(-c3ccncc3)o2)c1` gave a remaining activity of 102%.
`CN(C)C[C@H]1CCn2c(c(C3=C(c4cn(C)c5ccccc45)C(=O)NC3=O)c3ccccc32)C1` gave a remaining activity of 63.2%.
The remaining activity of `CCN(CC)CCNC(=O)c1c(C)[nH]c(/C=C2\C(=O)Nc3ccc(Cl)cc32)c1C` is reported as 91.7%.
The remaining activity of `Nc1cccc(-c2cc3c(Oc4cccc(O)c4)ncnc3[nH]2)c1` is reported as 85.9%.
For `N#Cc1c(NC(=O)c2cccc3ccccc23)sc2c1CCCC2`, the remaining activity was 105%.
For `O=C1c2ccccc2-c2n[nH]c3cccc1c23`, the remaining activity was 61.2%.
The remaining activity of `c1ccc(-c2[nH]ncc2-c2ccnc3ccccc23)nc1` is reported as 107%.
For `Cc1cc2ncc(-c3ccccc3)nc2cc1C`, the remaining activity was 101%.

Block 3 — method: phase 2a trial; species: idiopathic pulmonary fibrosis patients
Compound: CC(C)n1cnc(-c2ccc(F)cc2)c1-c1ncc(C(=O)Nc2ccc(N3CCN(C)CC3)cc2)[nH]1
For 30 mg once daily, grade 2 emergent event: “patients with headache” read 0%.
The “patients with headache” was 0% (30 mg once daily, grade 5 emergent event).
It gave 0% for “patients with headache” (60 mg once daily, grade 2 emergent event).
For 60 mg once daily, grade 3 emergent event: “patients with headache” read 0%.
It gave 0% for “patients with headache” (60 mg once daily, grade 5 emergent event).
The “patients with headache” was 0% (30 mg once daily, grade 4 emergent event).
The “patients with headache” was 0% (all arms pooled, grade 4 emergent event).

Block 4 — method: competition with immobilised ligand; tested at: 1 µM
SMILES: CCc1ccccc1C(=O)Nc1n[nH]c2c(C)c(F)c(C3C(C#N)=C(C)N(C)C(C)=C3C#N)cc12
It gave 100% for remaining binding (MAP3K6 (Homo sapiens, UniProt O95382); cell-free assay).
For MAP2K4 (Homo sapiens, UniProt P45985); cell-free assay: remaining binding read 100%.
For AKT2 (Homo sapiens, UniProt P31751); cell-free assay: remaining binding read 95%.
The remaining binding was 100% (BMP2K (Homo sapiens, UniProt Q9NSY1); cell-free assay).
For STK36 (Homo sapiens, UniProt Q9NRP7); cell-free assay: remaining binding read 100%.
MAPK11 (Homo sapiens, UniProt Q15759); cell-free assay — remaining binding: 91%.
It gave 100% for remaining binding (HASPIN (Homo sapiens, UniProt Q8TF76); cell-free assay).
The remaining binding was 0% (Ribosomal protein S6 kinase alpha-2, N-terminal kinase domain (RPS6KA2, Homo sapiens, UniProt Q15349); cell-free assay).
The remaining binding was 100% (DMPK (Homo sapiens, UniProt Q09013); cell-free assay).
PIK3CA (Homo sapiens, UniProt P42336, Q546K); cell-free assay — remaining binding: 39%.
For DYRK1B (Homo sapiens, UniProt Q9Y463); cell-free assay: remaining binding read 100%.
PRKD3 (Homo sapiens, UniProt O94806); cell-free assay — remaining binding: 88%.
CSNK1D (Homo sapiens, UniProt P48730); cell-free assay — remaining binding: 100%.
The remaining binding was 100% (CDK13 (Homo sapiens, UniProt Q14004); cell-free assay).
For PIP4K2C (Homo sapiens, UniProt Q8TBX8); binding: remaining binding read 77%.
SRC (Homo sapiens, UniProt P12931); cell-free assay — remaining binding: 94%.
SRPK1 (Homo sapiens, UniProt Q96SB4); cell-free assay — remaining binding: 89%.
For CSNK2A2 (Homo sapiens, UniProt P19784); cell-free assay: remaining binding read 100%.
It gave 100% for remaining binding (PLK1 (Homo sapiens, UniProt P53350); cell-free assay).
CSNK1A1L (Homo sapiens, UniProt Q8N752); cell-free assay — remaining binding: 62%.
For GSK3B (Homo sapiens, UniProt P49841); cell-free assay: remaining binding read 100%.
It gave 87% for remaining binding (CHUK (Homo sapiens, UniProt O15111); cell-free assay).
It gave 100% for remaining binding (HCK (Homo sapiens, UniProt P08631); cell-free assay).
It gave 100% for remaining binding (WEE1 (Homo sapiens, UniProt P30291); cell-free assay).
The remaining binding was 70% (ERN1 (Homo sapiens, UniProt O75460); cell-free assay).

Repeated from above (block 2):
`Ic1cccc(CSc2nnc(-c3ccncc3)o2)c1` gave a remaining activity of 102%.
`C[C@@H]1CCN(C(=O)CC#N)C[C@@H]1N(C)c1ncnc2[nH]ccc12` gave a remaining activity of 102%.
The remaining activity of `Cn1nc2c3c(cccc31)C(=O)c1ccccc1-2` is reported as 80.3%.
The remaining activity of `c1ccc(-c2[nH]ncc2-c2ccnc3ccccc23)nc1` is reported as 107%.
The remaining activity of `Nc1cccc(-c2cc3c(Oc4cccc(O)c4)ncnc3[nH]2)c1` is reported as 85.9%.
